# Experimental data collected from several papers.
# Target: MAP kinase-interacting serine/threonine-protein kinase 2 (MKNK2, Homo sapiens, UniProt Q9HBH9)
# UniProt Q9HBH9, sequence (whole entry, looked up): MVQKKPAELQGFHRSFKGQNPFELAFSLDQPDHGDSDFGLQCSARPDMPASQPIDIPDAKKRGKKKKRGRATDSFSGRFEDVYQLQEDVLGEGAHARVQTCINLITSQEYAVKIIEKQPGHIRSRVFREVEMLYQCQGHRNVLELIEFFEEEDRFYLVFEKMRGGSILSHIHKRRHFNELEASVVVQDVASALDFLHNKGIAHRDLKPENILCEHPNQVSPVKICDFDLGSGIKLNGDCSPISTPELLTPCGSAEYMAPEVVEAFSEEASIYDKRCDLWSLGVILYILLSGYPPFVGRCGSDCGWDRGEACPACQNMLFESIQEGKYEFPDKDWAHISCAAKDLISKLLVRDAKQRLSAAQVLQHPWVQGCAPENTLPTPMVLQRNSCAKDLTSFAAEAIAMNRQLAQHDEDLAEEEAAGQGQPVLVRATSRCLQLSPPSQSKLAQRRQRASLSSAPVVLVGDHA
SMILES,observed,mode,method,tested at,together with,endpoint,value
CCn1cc(C(=O)O)c(=O)c2c(N)c(F)c(NC3CCCCC3)cc21,kinase activity,,,0.1 µM,ATP at Km,inhibition,2.7%
CN1CC[C@@H](COc2cnc(C#N)cc2-c2ccn3nc(NC(=O)C4CC4)cc3c2)C1,enzyme activity,inhibitor,,1 µM,,inhibition,2%
COc1cc(Nc2nccc(-c3cnn4nc(OC)ccc34)n2)cc(C(F)(F)F)c1,binding,,competition with immobilised ligand,1 µM,,remaining binding,84%
CNC(=O)C1CCN(c2cc(C)c(F)cc2NC(=O)c2ccc(-c3cc(O)ccc3C)c(C)c2)CC1,binding,,competition with immobilised ligand,1 µM,,remaining binding,91%
CN1CCN(Cc2ccc(NC(=O)c3cccc(C#Cc4cnc(N)c5ncccc45)c3)cc2C(F)(F)F)CC1,cell-free assay,,competition with immobilised ligand,50 nM,,remaining binding,8.4%
CC(=O)Nc1ccc(-c2ccnc(NCC3CCC3)n2)cc1,cell-free assay,,competition with immobilised ligand,10 µM,,remaining binding,8%
Cc1cccc(-c2ccc3nc(NC(=O)C4CCCO4)nn3c2)c1 (centres unmarked),enzyme activity,,Dundee kinase panel,10 µM,,remaining activity,68%
COC(=O)[C@@]1(C)C=C(C(=O)Nc2cccc(C(=O)Nc3ccc(Nc4nccc(-c5cccnc5)n4)c(C)c3)c2)C(=O)CC1,enzyme activity,inhibitor,radiometric,1 µM,,remaining activity,106%
C=CC(=O)Nc1cccc(-c2cnc3[nH]cc(C(=O)NC(C)(C)C)c3n2)c1,enzyme activity,inhibitor,,0.1 µM,,inhibition,5%
NC(=O)[C@@H](O)C[C@H]1CCc2sc3ncnc(O[C@H]4CC[C@H](N5CCOCC5)CC4)c3c21,enzyme activity,inhibitor,,10 µM,,inhibition,4%
Cc1ccc(-c2c(/C=C(\C#N)C(=O)NC(C)C)n(CCCO)c3ncnc(N)c23)cc1,cell-free assay,,competition with immobilised ligand,1 µM,,remaining binding,92%
CCN1CCN(Cc2ccc(C(=O)Nc3ccc(C)c(NCc4cnc5[nH]ccc5c4OC)c3)cc2C(F)(F)F)CC1,binding,,competition with immobilised ligand,1 µM,,remaining binding,44%
Cc1ccc(C)c(-c2ccc3nc(NC(=O)C4CCCCC4)nn3c2)c1,enzyme activity,,Dundee kinase panel,10 µM,,remaining activity,50%
COc1ccc(NC(=O)Nc2ccc3c(c2)C(=O)N(C(C)CO)CC(C)C(CN(C)Cc2ccc4c(c2)OCO4)O3)cc1 (centres unmarked),binding,,competition with immobilised ligand,10 µM,,remaining binding,77%

# Repeated from above:
SMILES,observed,mode,method,tested at,together with,endpoint,value
C=CC(=O)Nc1cccc(-c2cnc3[nH]cc(C(=O)NC(C)(C)C)c3n2)c1,enzyme activity,inhibitor,,0.1 µM,,inhibition,5%
NC(=O)[C@@H](O)C[C@H]1CCc2sc3ncnc(O[C@H]4CC[C@H](N5CCOCC5)CC4)c3c21,enzyme activity,inhibitor,,10 µM,,inhibition,4%
